Published values gathered from unrelated publications.

Compound	target or system	assay	system	conditions	endpoint	value
O=C(Nc1ccc(Oc2nnc(-c3ccc(Cl)cc3)c3ccccc23)cc1)c1ccccc1	HepG2	cell growth or viability, MTT		5 µM, 24 h	viability	2.97%
COc1cc(-c2nc3ccccc3c(=O)n2Nc2ccc([N+](=O)[O-])cc2[N+](=O)[O-])ccc1OCc1cn(CC(=O)NCc2ccccc2)nn1		DPPH scavenging, absorbance		100 µM	inhibition	16.2%
CC(=O)Nc1ccc(Oc2nnc(-c3ccc(Cl)cc3)c3ccccc23)cc1	HepG2	cell growth or viability, MTT		10 µM	cell death	93.2%
CCCn1cnc2ccc(-c3ccc(NC(=O)CC(C)CC)nc3)cc2c1=O (centres unmarked)	HCC827	cell growth or viability, CCK-8		72 h	IC50	340 nM
Cc1ccc(N(O)N=Nc2ccc(S(=O)(=O)Nc3cc(C)on3)cc2)cc1		DPPH scavenging, absorbance		180 µg/mL	inhibition	27.9%
O=c1cc(-c2ccc(O)cc2)oc2cc(O)cc(O)c12	Helicobacter pylori	microbial growth, broth dilution		62.5 µg/mL	inhibition	100%
CC(=NNC(=O)c1ccncc1)c1ccc(Nc2nnc(-c3ccc(Cl)cc3)c3ccccc23)cc1	HepG2	cell growth or viability, MTT		0.156 µM, 24 h	viability	82.9%
CN(Cc1ccc(C(C)(C)C)cc1)Cc1cccc2ccccc12	Trichophyton mentagrophytes	microbial growth, disc diffusion	ATCC18748	0.032 µg/mL, 72 h	inhibition zone	55 mm
Cc1cc(C)c(C#N)c(SCC(=O)c2cccs2)n1	Trypanosoma brucei	parasite growth, resazurin	RHODESIENSE		EC50	> 64000 nM
CCCN(O)N=Nc1ccc(S(=O)(=O)Nc2nccs2)cc1		DPPH scavenging, absorbance		60 µg/mL	inhibition	11.4%
COC(=O)c1ccc(O)cc1	Helicobacter pylori	microbial growth, broth dilution		3.9 µg/mL	inhibition	100%
CC(=NNC(N)=S)c1ccc(Nc2nnc(-c3ccc(Cl)cc3)c3ccccc23)cc1	HepG2	cell growth or viability, MTT		0.312 µM	cell death	91.5%
CCN(O)N=Nc1ccc(S(=O)(=O)Nc2nccs2)cc1		DPPH scavenging, absorbance		180 µg/mL	inhibition	17.5%
Cc1cc(C)c(C#N)c(SC(C)C(=O)c2ccccc2)n1 (centres unmarked)	Leishmania infantum	parasite growth	mouse Macrophage	intracellular, amastigote	EC50	> 64000 nM
Cc1cccc(N(O)N=Nc2ccc(S(=O)(=O)Nc3cc(C)on3)cc2)c1		DPPH scavenging, absorbance		240 µg/mL	inhibition	36.3%
CC(=NNC(=O)c1ccccc1Cl)c1ccc(Nc2nnc(-c3ccc(Cl)cc3)c3ccccc23)cc1	HepG2	cell growth or viability, MTT		1.25 µM, 24 h	viability	5.45%
O=c1cc(-c2ccc(O)c(O)c2)oc2cc(O)cc(O)c12	Helicobacter pylori	microbial growth, broth dilution		15.63 µg/mL	inhibition	100%
Cc1cc(NS(=O)(=O)c2ccc(N=NN(C)O)cc2)no1		DPPH scavenging, absorbance		120 µg/mL	inhibition	34.7%
CC(=NNC(=O)c1ccccc1O)c1ccc(Nc2nnc(-c3ccc(Cl)cc3)c3ccccc23)cc1	HepG2	cell growth or viability, MTT		0.312 µM, 24 h	viability	98.2%
Cc1cc(NS(=O)(=O)c2ccc(N=NN(O)c3ccccc3)cc2)no1		DPPH scavenging, absorbance		300 µg/mL	inhibition	35%
CCCCn1cnc2ccc(-c3ccc(NC(=O)c4ccccc4)nc3)cc2c1=O	NCI-H1975	cell growth or viability, CCK-8		72 h	IC50	2440 nM
CCCN(O)N=Nc1ccc(S(=O)(=O)Nc2onc(C)c2C)cc1		DPPH scavenging, absorbance		240 µg/mL	inhibition	24.9%
CC(C)Nc1ccnc(Nc2cccc(-c3ccccc3)c2)n1	BJ	cell growth or viability, ATP luminescence		72 h	EC50	> 20000 nM

Some of these lines once more:
Compound	target or system	assay	system	conditions	endpoint	value
O=C(Nc1ccc(Oc2nnc(-c3ccc(Cl)cc3)c3ccccc23)cc1)c1ccccc1	HepG2	cell growth or viability, MTT		5 µM, 24 h	viability	2.97%
